Assay results pooled from the literature.
Parts stem from different laboratories: compare values within a part only. Positions count from the first letter of the parent shown.

Study 1
Target: vanadate, free oxyanion
Method: microfluidic competitive inhibition
Sample: in vitro, cell-free expressed
Tested at: not given
Notes: derived from inhibition constants, unchanged parent 676 nM
Direction: lower = stronger binding
Starting sequence: PafA, mature enzyme, eGFP fusion (Elizabethkingia meningoseptica, UniProt Q9KJX5); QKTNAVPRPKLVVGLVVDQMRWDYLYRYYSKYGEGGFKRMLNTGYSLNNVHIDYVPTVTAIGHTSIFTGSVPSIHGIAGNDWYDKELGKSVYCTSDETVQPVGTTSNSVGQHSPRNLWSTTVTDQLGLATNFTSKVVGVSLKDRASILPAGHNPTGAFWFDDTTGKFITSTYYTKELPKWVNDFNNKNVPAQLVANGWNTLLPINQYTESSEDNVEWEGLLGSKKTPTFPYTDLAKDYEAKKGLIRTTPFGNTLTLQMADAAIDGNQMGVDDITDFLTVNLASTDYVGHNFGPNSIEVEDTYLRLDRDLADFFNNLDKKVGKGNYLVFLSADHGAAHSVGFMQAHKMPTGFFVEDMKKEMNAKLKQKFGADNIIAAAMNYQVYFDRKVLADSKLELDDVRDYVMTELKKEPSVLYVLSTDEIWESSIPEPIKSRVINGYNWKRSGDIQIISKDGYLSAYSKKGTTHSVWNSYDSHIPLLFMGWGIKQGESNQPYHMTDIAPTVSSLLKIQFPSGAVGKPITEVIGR
`S412G`: “oxyanion analog dissociation constant” 895 nM.
`T465V` — result for “oxyanion analog dissociation constant”: 577 nM.
Under “oxyanion analog dissociation constant”, `P477G` is recorded as 785 nM.
For `I476G`, “oxyanion analog dissociation constant” read 6.71 µM.
Under “oxyanion analog dissociation constant”, `Y92G` is recorded as 9.39 µM.

Study 2
Target: CREBZF, bZIP domain (human)
Method: DHFR protein complementation
Sample: yeast
Notes: single substitutions, most at no-binding floor
Relative to: wild-type JUN-FOS pair
Direction: higher = stronger binding
Starting sequence: JUN, bZIP domain (human); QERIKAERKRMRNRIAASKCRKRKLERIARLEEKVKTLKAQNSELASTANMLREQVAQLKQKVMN; partner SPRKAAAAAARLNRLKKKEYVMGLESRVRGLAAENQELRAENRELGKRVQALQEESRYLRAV
The binding fitness of `A49K` is reported as -1.54 natural log.
`K34H` has a binding fitness of -1.56 natural log.
For `A57G`, the binding fitness was -1.49 natural log.
`K34C` has a binding fitness of -1.51 natural log.
`Q41L` gave a binding fitness of -1.43 natural log.
`K34W` has a binding fitness of -1.54 natural log.
`I28R` gave a binding fitness of -1.47 natural log.
The binding fitness of `A40D` is reported as -1.53 natural log.

Study 3
Target: RNA binding protein fox-1 homolog 2, RRM domain, GST-SBP tag (RBFOX2, Homo sapiens, UniProt O43251-10, residues 100-194)
Method: RNA Bind-n-Seq
Molecule type: RNA
Sample: in vitro
Tested at: 365 nM
Notes: natural RNA segment, single round, ends assumed
Relative to: no-protein control
Direction: higher = stronger binding
Constant ends, left off below: GGGAGUUCUACAGUCCGACGAUC … UGGAAUUCUCGGGUGCCAA
Target sequence (chain): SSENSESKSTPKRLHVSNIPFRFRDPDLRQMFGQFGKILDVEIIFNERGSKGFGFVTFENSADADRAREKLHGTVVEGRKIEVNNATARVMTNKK
`GGGCAAGUGAACUCAGCACUCUGCAGUGAGAGGGACAGUCCCAUGUGUGGCAGCAUUGUCCCACUUCAGAUGCCAGGAGUGGGCUCAUCCUAGAGGAGCGGAGUUUUCCG`: “RBNS enrichment (R)” 0.212.
`GCCUUGUUUCCUGCCUUAUAUCUUGUAUUUCGACUUAUUACAGAGUUGAGGGUUCUUGCUUAAUUUAGAUCAAGUAUAAAAUUUGUAUGACUUCAAGUCUCAUUUUAUCU`: “RBNS enrichment (R)” 0.892.
Under “RBNS enrichment (R)”, `AGUUCUCAGGAAUCCGACUGUAGAAUGCCACUCUGACUUCUUGAUGUUAAUCCAUGCUACCUAAAGUAAAGACAGGCUGCUUGGCCAAGUGGACACACUUGAGAAACAGU` is recorded as 0.471.
`CUGCCCCUUUCAGGCCUACAGCCACAUCCCCAAGCCCACCAGGUGUCAGGAUAGUCACAGUGAUACCAGUUCAGACACUACCCCAUAUACACCUGGAACAUUGAGGAUGG`: “RBNS enrichment (R)” 0.369.
Under “RBNS enrichment (R)”, `AGCUUAACUUCAGAAAUAAGAACUAGCACACUUAGACAAACAGGAGAGCAGGGGUUUGAAGCCAGCUGUCGAAGAGCAUCCCUGCUGUCUUAAGAAGCUUUUUCCCCAUA` is recorded as 0.425.
`ACCUCAGAGAUUUUUCUUCAGGAACUUCCACAAACUUUGAAUCCUUGUAUCUUUAUUUGGUAUUCAUACUACUAGUAGCAAAAUACAGGUUUUUUGUUUUGUUUUGUUUU`: “RBNS enrichment (R)” 0.545.
`GGUUUCUUUCAUAACCCAUUUCUUUAACCUCUUGUCAAUGAAAAUAAAAAGAAGAGGAAGGAAGGAAAUGUGUACAAGAAUAAAAGAAGGAAGAGAAGGUAGAAAAAGAA`: “RBNS enrichment (R)” 0.687.
`CUAUUCCAGCCAAAUGCAGGGAAACACUUUAUUUUGUUUGUUUUAGGUUUUGUUUUUCCUUGAGAGCCUUUUUUUAGGCCCCACAGACAGUGGUGGGUGGGGAGGCGAUA`: “RBNS enrichment (R)” 0.901.

Study 4
Target: CCNA1, cyclin fold, Cln2 fusion (human)
Method: yeast growth competition, sequencing
Sample: yeast
Notes: weak parent motif
Relative to: not given
Direction: higher = stronger binding
Starting sequence: viral docking peptide; CKVKRKLFGSENI; partner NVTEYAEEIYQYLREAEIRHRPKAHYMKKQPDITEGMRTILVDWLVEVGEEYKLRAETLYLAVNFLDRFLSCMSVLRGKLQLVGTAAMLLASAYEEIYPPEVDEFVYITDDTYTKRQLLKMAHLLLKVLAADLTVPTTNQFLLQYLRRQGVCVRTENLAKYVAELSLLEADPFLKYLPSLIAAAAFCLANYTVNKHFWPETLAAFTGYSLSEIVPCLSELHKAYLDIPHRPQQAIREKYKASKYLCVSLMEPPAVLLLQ
Under “normalised enrichment score”, `CKVKRKLAGSENI [F8A]` is recorded as 0.241.
`CKVKAKLFGSENI [R5A]`: “normalised enrichment score” 0.245.
`CAVKRKLFGSENI [K2A]` — result for “normalised enrichment score”: 0.496.
For `CKVKKKLLGSENI [R5K F8L]`, “normalised enrichment score” read -0.0199.
`CKVARKLFGSENI [K4A]` — result for “normalised enrichment score”: 0.555.
`CKVKKKLFGSENI [R5K]` — result for “normalised enrichment score”: -0.266.
`CKVKRKLFGSENA [I13A]`: “normalised enrichment score” 0.628.
`CKAKRKLFGSENI [V3A]`: “normalised enrichment score” 0.325.

Excerpt of the above (study 4):
`CKVKRKLFGSENA [I13A]`: “normalised enrichment score” 0.628.
`CKVARKLFGSENI [K4A]` — result for “normalised enrichment score”: 0.555.
`CKAKRKLFGSENI [V3A]`: “normalised enrichment score” 0.325.
